Measured values from different studies.
Compare with care: the assays were run in different laboratories. ± gives the spread as reported.

| Compound | test | test system | setting | endpoint | result |
| --- | --- | --- | --- | --- | --- |
| NC[C@@]1(CC(=O)O)[C@@H]2CC[C@H]3C[C@@H]2[C@@H]1C3 |  | human, normal renal function, plasma | dose not given, geometric mean | apparent volume of distribution unbound | 63.3 L |
| CNC(=O)c1ccc(N2C(=S)N(c3ccc(C#N)c(C(F)(F)F)c3)C(=O)C2(C)C)cc1F | population PK base model | human, male | oral, dose not given | apparent peripheral volume | 48.8 L |
| C[C@H](Cn1cnc2c(N)ncnc21)OCP(=O)(O)O | population PK model | human, plasma | oral, dose not given, reduced model estimate | apparent volume of distribution | 2330 L |
| C=CC(=O)N(C)CCOc1c(N)ncnc1-c1cc(F)cc(NC(=O)c2ccc(C3CC3)cc2F)c1C |  | human, whole blood | oral, 100 mg, single ascending dose | apparent clearance CL/F | 335 L/h |
| C=CC(=O)Nc1cc(Nc2nccc(-c3cn(C)c4ccccc34)n2)c(OC)cc1N(C)CCN(C)C | population PK model | human, plasma | oral, dose not given | apparent parent volume Vp/F | 1150 L |
| O=C(Nc1nc2cccc(-c3ccc(CN4CCS(=O)(=O)CC4)cc3)n2n1)C1CC1 | population PK bootstrap median | human | oral, dose not given | apparent central volume | 106 L |
| Cn1cc(-c2cn3nccc3c(-c3cnn([C@]4(CC#N)C[C@@H](C#N)C4)c3)n2)cn1 |  | healthy humans fasted, plasma | 400 mg single dose, geometric mean | apparent volume Vz/F | 2730 L |
| Cc1nc(Nc2ncc(C(=O)Nc3c(C)cccc3Cl)s2)cc(N2CCN(CCO)CC2)n1 |  | human patients, plasma | 85 mg/m^2, day 8 | apparent oral clearance | 2250 ± 1110 mL/min/m² |
| C=CC(=O)Nc1cc(Nc2nccc(-c3c[nH]c4ccccc34)n2)c(OC)cc1N(C)CCN(C)C | population PK model | human | dose not given | apparent metabolite volume Vm/F | 151 L |

A few entries again:
| Compound | test | test system | setting | endpoint | result |
| --- | --- | --- | --- | --- | --- |
| C=CC(=O)Nc1cc(Nc2nccc(-c3c[nH]c4ccccc34)n2)c(OC)cc1N(C)CCN(C)C | population PK model | human | dose not given | apparent metabolite volume Vm/F | 151 L |
